Published values from different studies.
Numbers after ± are the reported error.
UniProt Q8NER1, sequence (whole entry, looked up): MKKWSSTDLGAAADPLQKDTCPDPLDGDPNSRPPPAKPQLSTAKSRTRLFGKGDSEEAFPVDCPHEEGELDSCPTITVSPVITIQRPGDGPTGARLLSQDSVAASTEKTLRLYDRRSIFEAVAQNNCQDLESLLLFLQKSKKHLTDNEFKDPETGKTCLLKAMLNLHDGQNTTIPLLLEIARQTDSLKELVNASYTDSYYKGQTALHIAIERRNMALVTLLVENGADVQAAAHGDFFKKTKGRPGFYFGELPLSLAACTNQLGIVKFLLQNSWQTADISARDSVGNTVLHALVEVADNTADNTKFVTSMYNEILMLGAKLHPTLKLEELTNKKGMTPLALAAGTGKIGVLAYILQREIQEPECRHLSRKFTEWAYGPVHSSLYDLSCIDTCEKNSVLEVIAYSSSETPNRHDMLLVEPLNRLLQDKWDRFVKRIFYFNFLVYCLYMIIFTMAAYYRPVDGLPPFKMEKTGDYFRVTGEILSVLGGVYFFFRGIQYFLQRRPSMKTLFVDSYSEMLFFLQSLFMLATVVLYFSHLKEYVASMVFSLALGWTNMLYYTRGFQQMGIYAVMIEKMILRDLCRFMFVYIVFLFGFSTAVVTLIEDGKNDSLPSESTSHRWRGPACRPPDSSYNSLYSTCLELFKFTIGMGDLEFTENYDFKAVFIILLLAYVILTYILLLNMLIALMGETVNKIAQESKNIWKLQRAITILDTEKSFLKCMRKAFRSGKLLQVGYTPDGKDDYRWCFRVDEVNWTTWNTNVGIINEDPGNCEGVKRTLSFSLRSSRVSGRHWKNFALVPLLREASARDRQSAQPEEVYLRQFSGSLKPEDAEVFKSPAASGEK
UniProt P48546, sequence (whole entry, looked up): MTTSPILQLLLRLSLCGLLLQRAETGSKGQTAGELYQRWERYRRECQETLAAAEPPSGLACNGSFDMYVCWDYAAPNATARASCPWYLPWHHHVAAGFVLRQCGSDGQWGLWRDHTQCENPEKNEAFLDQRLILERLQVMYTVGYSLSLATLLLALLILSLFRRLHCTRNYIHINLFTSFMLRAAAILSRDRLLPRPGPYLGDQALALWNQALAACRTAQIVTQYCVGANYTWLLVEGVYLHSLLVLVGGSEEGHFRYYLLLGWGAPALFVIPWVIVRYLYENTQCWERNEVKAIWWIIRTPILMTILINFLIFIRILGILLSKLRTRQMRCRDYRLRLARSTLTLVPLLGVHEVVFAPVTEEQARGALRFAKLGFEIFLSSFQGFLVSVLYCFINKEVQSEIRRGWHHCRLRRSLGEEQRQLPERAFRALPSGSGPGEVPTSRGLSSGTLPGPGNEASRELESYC
UniProt P04775, sequence (whole entry, looked up): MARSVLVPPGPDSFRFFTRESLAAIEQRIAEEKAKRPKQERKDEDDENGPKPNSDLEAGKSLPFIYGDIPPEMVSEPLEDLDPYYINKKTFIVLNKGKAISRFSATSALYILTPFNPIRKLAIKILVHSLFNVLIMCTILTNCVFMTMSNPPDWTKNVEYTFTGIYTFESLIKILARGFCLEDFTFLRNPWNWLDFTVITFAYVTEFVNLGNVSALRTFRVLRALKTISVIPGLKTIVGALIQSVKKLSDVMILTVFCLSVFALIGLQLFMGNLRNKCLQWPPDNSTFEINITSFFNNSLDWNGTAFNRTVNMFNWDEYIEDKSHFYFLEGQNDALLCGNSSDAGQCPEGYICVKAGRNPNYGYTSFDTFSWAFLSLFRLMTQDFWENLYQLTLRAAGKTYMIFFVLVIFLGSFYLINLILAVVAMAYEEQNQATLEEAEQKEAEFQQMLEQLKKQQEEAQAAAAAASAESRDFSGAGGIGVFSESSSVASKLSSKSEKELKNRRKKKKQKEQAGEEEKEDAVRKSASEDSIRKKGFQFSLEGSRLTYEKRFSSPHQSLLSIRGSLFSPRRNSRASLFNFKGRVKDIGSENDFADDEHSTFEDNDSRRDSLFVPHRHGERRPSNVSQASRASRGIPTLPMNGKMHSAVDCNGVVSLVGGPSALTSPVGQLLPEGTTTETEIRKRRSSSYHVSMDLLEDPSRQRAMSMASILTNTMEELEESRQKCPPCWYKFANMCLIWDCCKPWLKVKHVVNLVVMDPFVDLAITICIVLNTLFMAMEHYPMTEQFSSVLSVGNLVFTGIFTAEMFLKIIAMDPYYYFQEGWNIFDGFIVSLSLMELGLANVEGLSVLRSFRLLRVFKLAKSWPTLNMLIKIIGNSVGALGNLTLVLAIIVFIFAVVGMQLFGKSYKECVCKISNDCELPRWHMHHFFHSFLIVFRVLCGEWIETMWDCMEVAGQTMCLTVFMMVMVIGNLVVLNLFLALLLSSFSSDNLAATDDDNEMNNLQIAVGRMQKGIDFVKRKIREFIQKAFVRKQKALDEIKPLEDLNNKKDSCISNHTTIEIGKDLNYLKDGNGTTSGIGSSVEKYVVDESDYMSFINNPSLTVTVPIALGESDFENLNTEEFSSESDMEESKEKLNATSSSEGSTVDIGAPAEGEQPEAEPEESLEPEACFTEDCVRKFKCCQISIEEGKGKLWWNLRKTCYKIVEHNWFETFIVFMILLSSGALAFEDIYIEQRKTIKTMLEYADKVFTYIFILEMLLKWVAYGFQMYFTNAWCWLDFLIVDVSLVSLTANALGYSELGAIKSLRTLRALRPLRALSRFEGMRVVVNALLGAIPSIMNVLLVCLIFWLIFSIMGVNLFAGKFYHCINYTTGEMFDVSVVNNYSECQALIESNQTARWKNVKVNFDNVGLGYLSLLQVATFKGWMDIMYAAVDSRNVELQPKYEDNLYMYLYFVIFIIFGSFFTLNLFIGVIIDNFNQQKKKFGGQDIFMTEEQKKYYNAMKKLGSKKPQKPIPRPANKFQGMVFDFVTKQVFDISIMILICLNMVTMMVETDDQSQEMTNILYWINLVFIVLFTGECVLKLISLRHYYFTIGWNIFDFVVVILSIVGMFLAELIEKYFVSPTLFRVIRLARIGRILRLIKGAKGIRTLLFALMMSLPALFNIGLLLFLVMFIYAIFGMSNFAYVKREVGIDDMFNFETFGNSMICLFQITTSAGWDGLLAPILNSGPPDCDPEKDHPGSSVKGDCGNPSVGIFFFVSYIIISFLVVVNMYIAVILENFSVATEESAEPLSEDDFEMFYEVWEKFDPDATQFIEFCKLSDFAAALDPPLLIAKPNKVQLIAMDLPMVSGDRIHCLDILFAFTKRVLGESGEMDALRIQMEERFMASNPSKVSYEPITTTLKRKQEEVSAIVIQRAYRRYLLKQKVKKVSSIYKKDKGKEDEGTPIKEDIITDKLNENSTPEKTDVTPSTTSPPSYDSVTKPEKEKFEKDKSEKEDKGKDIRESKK
UniProt P11229, sequence (whole entry, looked up): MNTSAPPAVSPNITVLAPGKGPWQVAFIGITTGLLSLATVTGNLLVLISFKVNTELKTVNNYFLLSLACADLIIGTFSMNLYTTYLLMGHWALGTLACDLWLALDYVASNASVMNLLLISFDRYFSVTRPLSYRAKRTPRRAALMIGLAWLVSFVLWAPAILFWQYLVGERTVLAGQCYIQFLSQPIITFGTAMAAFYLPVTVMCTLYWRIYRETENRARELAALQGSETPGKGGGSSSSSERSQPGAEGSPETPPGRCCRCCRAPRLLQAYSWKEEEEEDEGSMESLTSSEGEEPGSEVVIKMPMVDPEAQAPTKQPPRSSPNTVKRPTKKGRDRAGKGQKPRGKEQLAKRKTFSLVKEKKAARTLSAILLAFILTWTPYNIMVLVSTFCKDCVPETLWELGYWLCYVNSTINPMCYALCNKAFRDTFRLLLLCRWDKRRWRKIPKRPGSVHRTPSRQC
UniProt P43220, sequence (whole entry, looked up): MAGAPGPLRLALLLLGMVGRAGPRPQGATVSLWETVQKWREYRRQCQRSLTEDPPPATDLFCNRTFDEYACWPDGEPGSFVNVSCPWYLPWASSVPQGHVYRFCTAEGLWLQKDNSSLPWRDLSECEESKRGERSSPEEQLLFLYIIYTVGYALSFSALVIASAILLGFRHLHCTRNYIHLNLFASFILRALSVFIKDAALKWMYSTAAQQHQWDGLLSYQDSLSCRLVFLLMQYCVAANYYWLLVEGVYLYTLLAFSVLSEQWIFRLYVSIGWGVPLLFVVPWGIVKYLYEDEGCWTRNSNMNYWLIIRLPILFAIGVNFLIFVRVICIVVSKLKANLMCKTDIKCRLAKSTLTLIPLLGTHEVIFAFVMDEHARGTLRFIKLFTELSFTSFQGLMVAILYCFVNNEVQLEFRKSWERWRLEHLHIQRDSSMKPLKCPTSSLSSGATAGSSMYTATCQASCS
UniProt P41143, sequence (whole entry, looked up): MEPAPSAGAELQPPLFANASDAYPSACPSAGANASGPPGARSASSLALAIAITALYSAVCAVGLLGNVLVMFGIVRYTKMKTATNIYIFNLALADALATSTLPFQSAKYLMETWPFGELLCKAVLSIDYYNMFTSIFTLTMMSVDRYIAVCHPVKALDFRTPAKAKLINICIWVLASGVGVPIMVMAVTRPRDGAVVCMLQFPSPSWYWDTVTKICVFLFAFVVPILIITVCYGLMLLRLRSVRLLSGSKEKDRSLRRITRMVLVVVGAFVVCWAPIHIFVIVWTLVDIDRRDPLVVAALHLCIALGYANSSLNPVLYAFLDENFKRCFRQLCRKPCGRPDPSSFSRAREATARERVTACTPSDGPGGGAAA

The Emax of `CC[C@H](C)[C@H](NC(=O)[C@H](C)NC(=O)[C@H](CC(N)=O)NC(=O)[C@H](CCCCN)NC(=O)[C@H](Cc1ccccc1)NC(=O)[C@H](CC(C)C)NC(=O)[C@@H](NC(=O)[C@@H](NC(=O)[C@H](CC(C)C)NC(=O)[C@@H]1CCCN1C(=O)[C@@H](NC(=O)[C@H](CCC(N)=O)NC(=O)[C@H](CO)NC(=O)[C@H](CCCCN)NC(=O)[C@H](CCC(=O)O)NC(=O)[C@H](CO)NC(=O)[C@@H](NC(=O)[C@H](CCSC)NC(=O)[C@H](Cc1ccccc1)NC(=O)CNC(=O)CNC(=O)[C@@H](N)Cc1ccc(O)cc1)[C@@H](C)O)[C@@H](C)O)C(C)C)[C@@H](C)O)C(=O)N[C@H](C(=O)N[C@@H](CCCCN)C(=O)N[C@@H](CC(N)=O)C(=O)N[C@@H](C)C(=O)N[C@@H](Cc1ccc(O)cc1)C(=O)N[C@@H](CCCCN)C(=O)N[C@@H](CCCCN)C(=O)NCC(=O)N[C@@H](CCC(=O)O)C(=O)O)[C@@H](C)CC` is reported as 71 ± 5% (Oprm1 (Mus musculus, UniProt P42866); HEK293).
`CC[C@H](C)[C@H](NC(=O)[C@@H]1CCCN1C(=O)[C@H](CCC(=O)O)NC(=O)[C@H](CCC(N)=O)NC(=O)[C@H](CCCCN)NC(=O)[C@H](CCC(N)=O)NC(=O)[C@@H]1CCCN1C(=O)[C@@H]1CCCN1C(=O)[C@@H](NC(=O)[C@@H](NC(=O)[C@@H](NC(=O)[C@H](CCC(=O)O)NC(=O)[C@@H](NC(=O)CNC(=O)[C@H](CO)NC(=O)[C@H](CCCNC(=N)N)NC(=O)[C@H](Cc1ccccc1)NC(=O)[C@H](CO)NC(=O)[C@H](CCC(=O)O)NC(=O)[C@H](CCC(=O)O)NC(=O)[C@@H]1CCCN1C(=O)[C@@H]1CCCN1C(=O)[C@H](C)NC(=O)[C@@H](NC(=O)[C@@H]1CCCN1C(=O)[C@H](CCC(=O)O)NC(=O)[C@@H]1CCCN1C(=O)[C@H](CCCNC(=N)N)NC(=O)[C@@H](N)CO)[C@@H](C)O)C(C)C)[C@@H](C)O)[C@@H](C)O)[C@@H](C)O)C(=O)N[C@@H](CC(=O)O)C(=O)N[C@@H](CCCCN)C(=O)N[C@@H](CCC(=O)O)C(=O)N[C@@H](CC(C)C)C(=O)N[C@@H](Cc1ccc(O)cc1)C(=O)N1CCC[C@H]1C(=O)N[C@@H](CC(C)C)C(=O)N[C@H](C(=O)N[C@@H](CO)C(=O)N[C@@H](CC(C)C)C(=O)N[C@@H](CCCNC(=N)N)C(=O)N[C@@H](CO)C(=O)N[C@@H](CC(C)C)C(=O)N[C@@H](Cc1ccccc1)C(=O)NCC(=O)N[C@@H](CC(N)=O)C(=O)N[C@@H](CC(=O)O)C(=O)N1CCC[C@H]1C(=O)N[C@@H](CO)C(=O)N[C@@H](CO)C(=O)N[C@@H](CCC(N)=O)C(=O)O)[C@@H](C)O` — result for “bound state population”: about 3% (IDE (Homo sapiens, UniProt P14735, E111Q); NMR relaxation dispersion; 500 µM, 2 °C).
`C[Si](C)(C)C[C@H](CN)CC(=O)O` gave an inhibition of 11% (TRPV1 (Homo sapiens, UniProt Q8NER1); ligand displacement, radioligand; 250 µM).
With `CCCCCCCCCCCCCCCC(=O)N[C@@H](CCC(=O)NCCCC[C@H](NC(=O)[C@H](CO)NC(=O)[C@@H]1CCCN1C(=O)[C@@H]1CCCN1C(=O)[C@@H]1CCCN1C(=O)[C@H](C)NC(=O)CNC(=O)[C@H](CO)NC(=O)[C@H](CO)NC(=O)[C@@H]1CCCN1C(=O)CNC(=O)CNC(=O)[C@H](C)NC(=O)[C@H](CC(C)C)NC(=O)[C@H](CC(C)C)NC(=O)[C@H](Cc1c[nH]c2ccccc12)NC(=O)[C@H](CC(N)=O)NC(=O)[C@@H](NC(=O)[C@H](Cc1ccccc1)NC(=O)[C@H](CCC(=O)O)NC(=O)C(C)(C)NC(=O)[C@H](C)NC(=O)[C@H](C)NC(=O)[C@H](CCC(N)=O)NC(=O)[C@H](CCCCN)NC(=O)[C@H](CC(=O)O)NC(=O)[C@H](CC(C)C)NC(=O)[C@H](Cc1ccc(O)cc1)NC(=O)[C@@H](NC(=O)[C@H](CO)NC(=O)[C@H](Cc1ccc(O)cc1)NC(=O)[C@H](CC(=O)O)NC(=O)[C@H](CO)NC(=O)[C@@H](NC(=O)[C@H](Cc1ccccc1)NC(=O)[C@@H](NC(=O)CNC(=O)[C@H](CCC(=O)O)NC(=O)CSCC(=O)NCCN1C(=O)CSC1=O)[C@@H](C)O)[C@@H](C)O)[C@@H](C)CC)C(C)C)C(N)=O)C(=O)O` the Emax was 100% (GLP1R (Homo sapiens, UniProt P43220); cAMP, agonist).
The −TΔS of `CC[C@H](C)[C@H](N)C(=O)N[C@@H](CC(N)=O)C(=O)N[C@@H](CC(N)=O)C(=O)N[C@H](C(=O)N1C[C@@H](n2cc([C]34[CH]5[CH]6[CH]7[CH]3[Fe]6754389%10[CH]4[CH]3[CH]8[CH]9[CH]4%10)nn2)C[C@H]1C(=O)N[C@@H](Cc1cn(C)c2ccccc12)C(N)=O)[C@@H](C)CC` (stereo partly drawn) is reported as 2.7 ± 0.2 kcal/mol (Envelope glycoprotein gp160, gp120 (env, Human immunodeficiency virus type 1 group M subtype B, UniProt P35961, T253A); binding, isothermal titration calorimetry; HIV-1; gp120 T257A).
`CC[C@H](C)[C@@H]1NC(=O)[C@H](Cc2ccc(O)cc2)NC(=O)[C@H](CC(C)C)NC(=O)[C@@H]2CCCN2C(=O)[C@H](CCC(=O)O)NC(=O)[C@H](CCC(N)=O)NC(=O)[C@H](CCSC)NC(=O)[C@H](Cc2ccccc2)NC(=O)[C@@H](NC(=O)[C@H](C)N)CSCC(=NOCC(=O)NC/C=C/S(C)(=O)=O)CSC[C@@H](C(=O)NCC(N)=O)NC1=O` gave a kinact/KI of 6500 ± 130 M⁻¹ s⁻¹ (Genome polyprotein, NIa protease (Tobacco etch virus, UniProt P04517); covalent inhibitor; Genome polyprotein 50 nM).
With `CSCC[C@@H]1NC(=O)[C@H](Cc2ccccc2)NC(=O)CNC(=O)[C@H](NC(=O)[C@@H](N)Cc2ccc(O)cc2)CSSC[C@@H](C(=O)N[C@@H](Cc2c[nH]c3ccccc23)C(=O)NCc2cc(C(F)(F)F)cc(C(F)(F)F)c2)NC(=O)[C@@H]2CCCN2C1=O` the Emax was 11% (OPRD1 (Homo sapiens, UniProt P41143); GTPγS binding, agonist, radiometric; cell membranes).
`CC[C@H](C)[C@H](NC(=O)[C@H](C)NC(=O)[C@@H](NC(=O)[C@H](CC(=O)O)NC(=O)[C@H](CCCCN)NC(=O)[C@H](CO)NC(=O)[C@@H](NC(=O)[C@H](CC(N)=O)NC(=O)[C@H](C)NC(=O)[C@@H](NC(=O)[C@H](CCC(=O)O)NC(=O)[C@H](CCCCN)NC(=O)[C@@H](NC(=O)[C@@H](NC(=O)[C@H](Cc1c[nH]cn1)NC(=O)[C@H](CCCCN)NC(=O)[C@@H](NC(=O)[C@H](CCCCN)NC(=O)[C@H](CCCCN)NC(=O)[C@@H](NC(=O)[C@H](CC(C)C)NC(=O)[C@H](CCCCN)NC(=O)[C@H](CC(N)=O)NC(=O)[C@H](Cc1ccccc1)NC(=O)[C@H](CCCNC(=N)N)NC(=O)[C@H](CCCCN)NC(=O)[C@H](CCCNC(=N)N)NC(=O)[C@H](Cc1ccccc1)NC(=O)CN)C(C)C)C(C)C)[C@@H](C)O)[C@@H](C)CC)[C@@H](C)O)C(C)C)C(C)C)C(=O)N[C@H](C(=O)N[C@@H](C)C(=O)NCC(=O)N[C@@H](CO)C(=O)NCC(=O)N[C@H](C(=O)N[C@@H](C)C(=O)N[C@H](C(=O)NCC(=O)N[C@@H](C)C(=O)N[C@@H](C)C(=O)N[C@@H](CCSC)C(N)=O)C(C)C)C(C)C)C(C)C` has an inhibition of 49% (CHRM1 (Homo sapiens, UniProt P11229); antagonist, CEREP off-target panel; 10 µM).
The inhibition of `CC(C)C[C@H](NC(=O)[C@H](CCCCN)NC(=O)[C@H](Cc1c[nH]c2ccccc12)NC(=O)[C@H](CCCCN)NC(=O)[C@@H]1CSSC[C@@H]2NC(=O)[C@H](CCC(=O)O)NC(=O)[C@H](CC(N)=O)NC(=O)[C@H](CCCCN)NC(=O)CNC(=O)[C@@H]3CCCN3C(=O)[C@H]([C@@H](C)O)NC(=O)[C@@H]3CSSC[C@H](NC(=O)[C@H](C(C)C)NC(=O)[C@H](CCCNC(=N)N)NC(=O)[C@H](CC(N)=O)NC(=O)[C@@H]4CCCN4C(=O)[C@H](CSSC[C@H](NC(=O)[C@H](C)N)C(=O)N[C@@H](CCCCN)C(=O)NCC(=O)N[C@@H](C(C)C)C(=O)N[C@@H](Cc4ccccc4)C(=O)N[C@@H](CC(=O)O)C(=O)N[C@@H](C)C(=O)N3)NC2=O)C(=O)N[C@@H](CO)C(=O)N[C@@H](CC(=O)O)C(=O)N[C@@H](CCCCN)C(=O)N[C@@H](Cc2c[nH]cn2)C(=O)N[C@@H](CCCCN)C(=O)N[C@@H](Cc2c[nH]c3ccccc23)C(=O)N1)C(N)=O` is reported as 84.4% (Scn2a (Rattus norvegicus, UniProt P04775); ion current, inhibitor, two-electrode voltage clamp; 1 µM, pH 7.4, oocytes).
With `CC[C@H](C)[C@H](NC(=O)[C@H](CCCN)NC(=O)[C@H](CC(=O)O)NC(=O)[C@H](CC(C)C)NC(=O)C(C)(CC(C)C)NC(=O)[C@@H](NC(=O)[C@H](CO)NC(=O)[C@H](Cc1ccc(O)cc1)NC(=O)[C@H](CC(=O)O)NC(=O)[C@H](CO)NC(=O)[C@@H](NC(=O)[C@H](Cc1ccccc1)NC(=O)[C@@H](NC(=O)CNC(=O)[C@H](CCC(=O)O)NC(=O)C(C)(C)NC(=O)[C@@H](N)Cc1ccc(O)cc1)[C@@H](C)O)[C@@H](C)CC)[C@@H](C)CC)C(=O)N[C@@H](Cc1c[nH]cn1)C(=O)N[C@@H](CCC(N)=O)C(=O)NC(C)(C)C(=O)N[C@@H](CC(=O)O)C(=O)N[C@@H](Cc1ccccc1)C(=O)N[C@H](C(=O)N[C@@H](CCC(=O)O)C(=O)N[C@@H](Cc1ccc(O)cc1)C(=O)N[C@@H](CCCCNC(=O)COCCOCCNC(=O)COCCOCCNC(=O)CC[C@H](NC(=O)CCCCCCCCCCCCCCCCCCC(=O)O)C(=O)O)C(=O)N[C@@H](CC(C)C)C(=O)N[C@@H](CCC(=O)O)C(=O)NCC(=O)NCC(=O)N1CCC[C@H]1C(=O)N[C@@H](CO)C(=O)N[C@@H](CO)C(=O)NCC(=O)N[C@@H](C)C(=O)N1CCC[C@H]1C(=O)N1CCC[C@H]1C(=O)N1CCC[C@H]1C(=O)N[C@@H](CO)C(N)=O)C(C)C` (stereo partly drawn) the Emax was 102% (GIPR (Homo sapiens, UniProt P48546); cAMP, agonist; HEK293).
With `NS(=O)(=O)c1ccc(NC(=O)c2ccccc2SSc2ccccc2C(=O)Nc2ccc(S(N)(=O)=O)cc2)cc1` the Hill coefficient was 1.3 ± 0.13 (Gag-Pol polyprotein, integrase residues 50-288 (gag-pol, Human immunodeficiency virus type 1 group M subtype B, UniProt P04585, C1427S); DNA binding, fluorescence anisotropy; integrase ΔN; compound:IN ratio 3:1, with: 10 mM Mn2+, U5 DNA).
For `CC(C)C[C@@H]1NC(=O)[C@@H](NC(=O)[C@H](CC(=O)O)NC(=O)[C@H](C)N)CSSC[C@@H]2NC(=O)[C@@H]3CSSC[C@@H](C(=O)N[C@@H](CCCNC(=N)N)C(=O)O)NC(=O)[C@H](CCCNC(=N)N)NC(=O)[C@H](CCC(N)=O)NC(=O)[C@H](CCC(=O)O)NC(=O)[C@@H]4CCCN4C(=O)[C@H](CC(N)=O)NC(=O)[C@H]([C@@H](C)O)NC(=O)CNC(=O)[C@H](CCCNC(=N)N)NC(=O)[C@H](CCCNC(=N)N)NC(=O)[C@H](CO)NC(=O)[C@H](CSSC[C@H](NC(=O)[C@H](CC(C)C)NC(=O)[C@H](CCCCN)NC(=O)[C@H](CC(C)C)NC(=O)[C@H](Cc4c[nH]cn4)NC(=O)[C@H](C)NC1=O)C(=O)N[C@@H](CCCCN)C(=O)N[C@@H](CCCCN)C(=O)N[C@@H](CC(N)=O)C(=O)N[C@@H](CCCCN)C(=O)N[C@@H](CC(=O)O)C(=O)N3)NC(=O)[C@H](CCCCN)NC(=O)[C@H](CCCCN)NC(=O)[C@H](CO)NC2=O`, “maximal [3H]ryanodine binding” read about 300% (RYR1 (Oryctolagus cuniculus, UniProt P11716); activator; 100 nM, pCa 6 to 4; reference: control at pCa 5).

For quick reference, copied from above:
With `CC[C@H](C)[C@H](NC(=O)[C@H](CCCN)NC(=O)[C@H](CC(=O)O)NC(=O)[C@H](CC(C)C)NC(=O)C(C)(CC(C)C)NC(=O)[C@@H](NC(=O)[C@H](CO)NC(=O)[C@H](Cc1ccc(O)cc1)NC(=O)[C@H](CC(=O)O)NC(=O)[C@H](CO)NC(=O)[C@@H](NC(=O)[C@H](Cc1ccccc1)NC(=O)[C@@H](NC(=O)CNC(=O)[C@H](CCC(=O)O)NC(=O)C(C)(C)NC(=O)[C@@H](N)Cc1ccc(O)cc1)[C@@H](C)O)[C@@H](C)CC)[C@@H](C)CC)C(=O)N[C@@H](Cc1c[nH]cn1)C(=O)N[C@@H](CCC(N)=O)C(=O)NC(C)(C)C(=O)N[C@@H](CC(=O)O)C(=O)N[C@@H](Cc1ccccc1)C(=O)N[C@H](C(=O)N[C@@H](CCC(=O)O)C(=O)N[C@@H](Cc1ccc(O)cc1)C(=O)N[C@@H](CCCCNC(=O)COCCOCCNC(=O)COCCOCCNC(=O)CC[C@H](NC(=O)CCCCCCCCCCCCCCCCCCC(=O)O)C(=O)O)C(=O)N[C@@H](CC(C)C)C(=O)N[C@@H](CCC(=O)O)C(=O)NCC(=O)NCC(=O)N1CCC[C@H]1C(=O)N[C@@H](CO)C(=O)N[C@@H](CO)C(=O)NCC(=O)N[C@@H](C)C(=O)N1CCC[C@H]1C(=O)N1CCC[C@H]1C(=O)N1CCC[C@H]1C(=O)N[C@@H](CO)C(N)=O)C(C)C` (stereo partly drawn) the Emax was 102% (GIPR (Homo sapiens, UniProt P48546); cAMP, agonist; HEK293).
